Measurements of several laboratories.
Parts stem from different laboratories: compare values within a part only.

Study 1 — method: RNA Bind-n-Seq; molecule type: RNA; medium: in vitro; tested at: 365 nM; reference: no-protein control; direction: higher = stronger binding; measurement: RBNS enrichment (R)
Target: RNA binding protein fox-1 homolog 2, RRM domain, GST-SBP tag (RBFOX2, Homo sapiens, UniProt O43251-10, residues 100-194)
Notes: natural RNA segment, single round, ends assumed
All sequences stand within: GGGAGUUCUACAGUCCGACGAUC … UGGAAUUCUCGGGUGCCAA
Residues (chain): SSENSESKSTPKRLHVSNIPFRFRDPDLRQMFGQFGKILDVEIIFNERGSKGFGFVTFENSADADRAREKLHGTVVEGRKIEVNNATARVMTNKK
CAGUGCCUCUGGGGGCUUCCUGAUGGAAAACUACACAAACUGAGUUUUUUAAAUGUUAACUCCACUUAGGCUUCUGUUUUCCUCAUAUCCUAUUUUUAAUUACUUCCAAU: 0.763
CAGUGAGGAAAGGCUGCUGUCAUGGUGUGGCCCUGCCUCACUGUCAAUAUCUGUUUUCUCUGGAGAGUCCACCAGUGACCCAAGCUCUCCCUGCCAGCCUCCUGUGUCAA: 0.354
GAGACUAAAGGAUGUUGAAGGCUACACAUUCAACCUUUUGUUAGGUGUUUCCUUUAAGCUACUCAGCUGUACCUUUUAAAUUAGUUCUUUUUCAACCAGUAUAUCACUAA: 0.396
AGGGGUCUUGUGACUUGGAGAGGUCCUCAGCAGGCCUGGGAGCCCGGAUUGGAGCCUUGGCUGCCGUUGAGAAGCACUUACCUGCCAAGAUUUGCUGAUGCCAGACGAUC: 0.335
CGCCAGGAUAAAUUCUGCUUCCACCCCACAAAGGCAGUCACAGGAGAGAGUGGAGAGAGCAGUAAGGAGGCCACUGGAAGGAGCCAGACACAGAUUCUGGUUCAUUCAUU: 0.416
GGUCUGUGAAGCUGCUGCCCCUGAGCUGGAGGGGGGUCUCAUUCUACAAAGAGAGAGGUGGCCCCCCUUUCUUGACCUCCUCCUCCUUCAAGCUCAAACACCACCUCCCU: 0.304
CAAGUAUUAAGAUAAUUUGUACAUGUAGAGAAAAAAAUGACUUUUUCAUAAUAUACAGGGGCAGCUGCCAAAUUGAUGUAUUAUAAUAUUGUGGUUUCUGUUUCUUGAGA: 0.772
CUCAUCAGUGGCUAAAGUUGAAAAGGGGUUGGUUUCCUGUAUAUAUAUGUAUGUAUAUACACACGUACAUACAUUCAUAUAUAUACAUAUAUACAUAAUGUGCUUAACCA: 0.272
CCUGCGUCAUGUAAAUAUCUGCAAAUCAUGACAGUCUAAAGUGCAAACCAUUUUCAGAGACUUUGGGGAAUGCAGUGAUCAGAAGUGGCUAAUUUAUUUUAUUUCUGAUU: 0.907
AUCCAAUAGGUGAUGAAAUACAUUUUUUACAAACAUAGAUGCUUUUUAUUUGUAUGUUGAAUGUACAGAUUCAUUUCAAGAAAAGCAUGAAGAUAAUGAAAGCAAAUAUG: 1.85
CUGCCACAGACAUCCCACAAAGCCGCUGCCAUUUUAUUAAAGUGUUUUGAUCCACUUUGCACUGGAAUGAGAGGAUCUGUGUAAGGCACUUUCCAGGGAAGGCUGGGGAC: 0.57
CACCUCCUUGCCUUUCAGUAAAUGGCCACGAUGUGACUAUUUGUUGAGGUUUCCAGCCUCUUCCAAGACCUUGCCAGGCUGAGUGGGGCCUGAGAGCUUGCAGGCACUUA: 0.377

Study 2 — method: universal PBM; molecule type: double-stranded DNA, one strand shown; medium: in vitro; tested at: 600 nM; direction: higher = stronger binding; measurement: E-score
Target: Sal-like protein 4, full length isoform A (SALL4, Homo sapiens, UniProt Q9UJQ4, residues 1-1053)
UniProt Q9UJQ4, sequence (whole entry, looked up): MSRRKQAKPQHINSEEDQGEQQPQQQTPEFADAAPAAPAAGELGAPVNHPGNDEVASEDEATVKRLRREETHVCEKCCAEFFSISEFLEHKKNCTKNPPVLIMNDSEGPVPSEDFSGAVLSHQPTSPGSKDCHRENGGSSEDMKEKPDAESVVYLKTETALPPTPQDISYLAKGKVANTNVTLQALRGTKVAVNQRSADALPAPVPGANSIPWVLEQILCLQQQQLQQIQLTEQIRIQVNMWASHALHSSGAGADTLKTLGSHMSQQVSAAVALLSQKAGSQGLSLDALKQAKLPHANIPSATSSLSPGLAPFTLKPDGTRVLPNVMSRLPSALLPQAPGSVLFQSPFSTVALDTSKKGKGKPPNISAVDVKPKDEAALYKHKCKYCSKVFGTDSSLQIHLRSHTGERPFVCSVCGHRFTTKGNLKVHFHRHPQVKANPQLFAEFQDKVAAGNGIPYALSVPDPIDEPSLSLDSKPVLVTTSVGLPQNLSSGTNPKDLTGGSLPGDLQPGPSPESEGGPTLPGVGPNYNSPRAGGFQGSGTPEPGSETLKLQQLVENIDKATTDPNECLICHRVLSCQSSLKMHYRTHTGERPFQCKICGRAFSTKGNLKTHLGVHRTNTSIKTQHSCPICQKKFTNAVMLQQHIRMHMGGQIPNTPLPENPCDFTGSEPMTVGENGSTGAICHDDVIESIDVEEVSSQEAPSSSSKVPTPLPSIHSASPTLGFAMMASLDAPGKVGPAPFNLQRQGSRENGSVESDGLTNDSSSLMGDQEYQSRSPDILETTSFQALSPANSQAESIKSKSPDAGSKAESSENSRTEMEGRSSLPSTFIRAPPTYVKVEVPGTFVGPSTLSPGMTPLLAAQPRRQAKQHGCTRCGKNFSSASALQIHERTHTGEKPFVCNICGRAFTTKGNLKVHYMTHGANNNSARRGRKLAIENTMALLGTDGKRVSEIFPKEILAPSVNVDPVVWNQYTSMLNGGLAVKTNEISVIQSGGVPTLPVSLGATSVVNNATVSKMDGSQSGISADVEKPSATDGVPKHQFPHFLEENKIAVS
Notes: 8-mer, flanks averaged, mean of replicates
CTAGATTC: -0.0451
CCGTAGAA: -0.0569
CTGCCCTC: -0.288
CAATACAA: 0.252
AAAACTAC: 0.182
CGTGAATA: 0.213
CGGCGTAG: -0.232
CGGGGCAA: -0.228
CGAAAAGC: -0.106
TCCGTTCA: -0.0871
GAGCCCTC: -0.299
GGTGGGTA: -0.0771
TCAGACCA: 0.0585
CGCCGCGA: -0.216
GGTTCAAA: 0.0602
CGGTAATC: -0.0877
CAAGTAAA: 0.2
CTGAATGC: -0.11
CCGCAGTC: -0.252
GAGTTTTA: 0.182
GTCAGTAA: 0.0874
AGCTACTG: -0.0883
GAACGTTA: 0.0719
TACCTTGA: 0.0911
GAATTGAA: 0.22

Study 3 — method: protein-binding microarray; molecule type: double-stranded DNA, one strand shown; medium: in vitro; tested at: 250 nM; notes: 60-bp whole probe; with: salmon DNA 0.4 mg/ml; reference: random background probes; direction: higher = stronger binding; measurement: log fluorescence; all sequences stand within: GCCTAGCAC … GTCTTGATTCGCTTGACGCTGCTG
Target: Interferon regulatory factor 5, full length, phosphomimetic (IRF5, Homo sapiens, UniProt Q13568-2, residues 1-514, K96S/S451D/S453D/S456D/S462D)
TTAGAACTGAGTATCGATTGGTGCTAG: 6.59 z-score
TCAGTACTTTCTATCTCACTGTGCTAG: 4.91 z-score
GACGGTTTCGGTTTTCGGGACGTGCTA: 9.88 z-score
TCAATTATTGTCTTCCCACTGTGCTAG: 0.684 z-score
TATTCTCTACTTGTGTCTAGGTGCTAG: 0.697 z-score
GTGACTCTGAACCTTCAGCTCGTGCTA: -0.332 z-score
TTAGGTCTCTTTCTCCTTTAGTGCTAG: 1 z-score
AACGAACTGAGTTTCGAGACGTGCTAG: 4.61 z-score
TGCCATATTTATCTGCAAAGGTGCTAG: 0.326 z-score
TTAGGTCTGGGTCTCGGTTAGTGCTAG: 0.153 z-score
CTAGGTTCCCTTTTCCTTTAGTGCTAG: 0.226 z-score
TCATTCCTGAAATCTCTTACTGTGCTA: 0.914 z-score
TTAAGACTGGGTTTCGGTTAGTGCTAG: 8.07 z-score
GACGATATCAGGATCGAGACGTGCTAG: 0.593 z-score
TCAGGTATCGGACTGGGTTAGTGCTAG: 1.1 z-score
GACGAACTGAGTTTCGAGCCGTGCTAG: 3.42 z-score
GACGGACTGGGGACTGTGGACGTGCTA: -0.483 z-score
TTAGGTATCCTTATCCTTGAGTGCTAG: 0.182 z-score
GAAGGTCTCCTTTTCCTGACGTGCTAG: -0.0648 z-score
ATAGATCTCAGACTGGATTAGTGCTAG: -0.0369 z-score
TGTCATTTACATTTTAGTAGGTGCTAG: 0.678 z-score
TTTGCTTTCCTTTGCTTTCTGTGCTAG: 2.78 z-score
TTAGATTTCCGGTATCGATTAGTGCTA: 6.08 z-score
TTAGGACTGGACTTTCGGTAAGTGCTA: 8.55 z-score
TTAGGACTGGGGCATCGGTTAGTGCTA: -0.0258 z-score

Study 4 — method: RNA Bind-n-Seq; molecule type: RNA; medium: in vitro; tested at: not given; reference: input RNA pool; direction: higher = stronger binding; measurement: bound/input enrichment
Target: RING finger protein unkempt homolog, zinc fingers 1-6, GST-SBP tag (UNK, Homo sapiens, UniProt Q9C0B0, residues 30-357)
Notes: RNA with constant flanks, human and mouse sites, ends assumed
All sequences stand within: GGGAGUUCUACAGUCCGACGAUC … CAACAGAGGAUUGAGCAUCA
Residues (chain): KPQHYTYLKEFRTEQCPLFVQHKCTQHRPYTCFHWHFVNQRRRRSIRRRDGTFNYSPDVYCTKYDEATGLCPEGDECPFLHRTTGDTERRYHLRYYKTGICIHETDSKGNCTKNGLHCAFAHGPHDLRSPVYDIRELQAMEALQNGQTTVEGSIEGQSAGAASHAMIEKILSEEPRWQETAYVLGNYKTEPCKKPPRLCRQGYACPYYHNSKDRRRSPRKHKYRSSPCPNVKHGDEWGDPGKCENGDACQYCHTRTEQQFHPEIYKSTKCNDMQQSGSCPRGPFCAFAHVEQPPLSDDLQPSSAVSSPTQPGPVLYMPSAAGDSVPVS
GAUGUGGCAUGGUUCCUGACGGAAACUUCCCCCUUCAUGUGGUCGAAUCUGGGCAUUGGCCUAGCAAUUUCUCUGUCUGUGGUUGGAGCAGCCUGGGGAAUCUAUAUAACCGGCUCAUCC: 0.211 ratio
CCACUUCGAAGCGUCUUGGAGCAAUCCAAGUUAAAGAAAGAAGAUAUUUAUGCAGUGGAGAUAGUUGGUGGUGCCACACGAAUCCCUGCAGUGAAAGAGAAGAUCAGCAAGUUUUUUGGU: 0.186 ratio
AAAGAUAAAUUUGCAAGGGCCAAAGAGUUUGGAGCCACUGAAUGUAUUAACCCUCAGGAUUUUAGUAAACCCAUCCAGGAAGUGCUCAUUGAGAUGACCGAUGGAGGAGUGGACUAUUCC: 0.103 ratio
ACAGGAAAAAGUGGACUGGCAGGAACAAUUAAUUUAAGUGAAAGACGUUUAUUUUUUACCACUGCCAGUGCUCAUUUAAAAGCUGGCUGCCCAAUGUUGGCUUUGGAAGUAUUAUCAAAG: 0.228 ratio
CCUAACACCGAUGACCUGUUCAAAGCUGUUGGUGAUGGAAUUGUGCUUUGUAAAAUGAUUAACCUUUCAGUUCCUGAUACCAUUGAUGAAAGAGCAAUCAACAAGAAGAAACUUACACCC: 0.113 ratio
UACAAAGCUUUUCCAGCUGCAAAUGAACGAGAUGAAGUGUUUGAAAAAGAGCCUUUGUAUGGUGGGAUGCUAAUAGAGGAUUAUAUUUAUGAAUCUUUAGUAGAAGACACGUACAAUGGA: 0.279 ratio
CUCCGUUAUGUGCCGCUCUGGAAGGUCCAUAUUUUCACAGUCAUUCAGCUUACUUGUUUGGUCCUUUUAUGGGUGAUAAAAGUUUCAGCUGCUGCAGUGGUUUUUCCCAUGAUGGUUCUU: 0.189 ratio
GGUGCCUUUGCUUUGCCCAUCCUGAAUGCCCUGCUGGAGACGCCCCAGCGACUGUUCGCCCUGGUCCUCACCCCUACUCGAGAGUUGGCCUUUCAGAUCUCUGAGCAGUUCGAGGCCCUG: 0.1 ratio
UACUUGACGAAGGCCUACGACCUCGUCGUGGACUGGCCCGUGACCCUCGUGAGAGAGUUUAUUGAACGACAGCAUGCCAAGAACCGAACCUACUACUACCACCGACAGUACCGUCGAGUG: 0.0454 ratio
UGGAAGGAUGAGUUCAAGGCACACUCGAGGGUGAAGUGUCCAAACUCAGGGUGCUGGCUGGAGUUCCCCAGCAUCUACGGGCUCAAGUACCAUUACCAGCGGUGCCAAGGGGGUGCCAUC: 0.0769 ratio
AGAAGAUUUUAUCUAGCUUAUACAAGGCUGCUGGUGUUCCCUCUUUUUUUCCACGAGGGUGUUUUUGGCUGCAAUUGCAUGAAAUCCCAAUGGUGUAGACCAGUGGCGAUGGAUCUAGGA: 0.523 ratio

Some of these lines once more (study 3):
TTAGAACTGAGTATCGATTGGTGCTAG: 6.59 z-score
TCAGTACTTTCTATCTCACTGTGCTAG: 4.91 z-score
GACGGTTTCGGTTTTCGGGACGTGCTA: 9.88 z-score
TCAATTATTGTCTTCCCACTGTGCTAG: 0.684 z-score
TATTCTCTACTTGTGTCTAGGTGCTAG: 0.697 z-score
GTGACTCTGAACCTTCAGCTCGTGCTA: -0.332 z-score
TTAGGTCTCTTTCTCCTTTAGTGCTAG: 1 z-score
AACGAACTGAGTTTCGAGACGTGCTAG: 4.61 z-score
TGCCATATTTATCTGCAAAGGTGCTAG: 0.326 z-score
